{"data": "Measurements gathered from unrelated publications", "note": "A part holds a random share of what one study measured.", "UniProt P42336, sequence (whole entry, unmodified, looked up)": "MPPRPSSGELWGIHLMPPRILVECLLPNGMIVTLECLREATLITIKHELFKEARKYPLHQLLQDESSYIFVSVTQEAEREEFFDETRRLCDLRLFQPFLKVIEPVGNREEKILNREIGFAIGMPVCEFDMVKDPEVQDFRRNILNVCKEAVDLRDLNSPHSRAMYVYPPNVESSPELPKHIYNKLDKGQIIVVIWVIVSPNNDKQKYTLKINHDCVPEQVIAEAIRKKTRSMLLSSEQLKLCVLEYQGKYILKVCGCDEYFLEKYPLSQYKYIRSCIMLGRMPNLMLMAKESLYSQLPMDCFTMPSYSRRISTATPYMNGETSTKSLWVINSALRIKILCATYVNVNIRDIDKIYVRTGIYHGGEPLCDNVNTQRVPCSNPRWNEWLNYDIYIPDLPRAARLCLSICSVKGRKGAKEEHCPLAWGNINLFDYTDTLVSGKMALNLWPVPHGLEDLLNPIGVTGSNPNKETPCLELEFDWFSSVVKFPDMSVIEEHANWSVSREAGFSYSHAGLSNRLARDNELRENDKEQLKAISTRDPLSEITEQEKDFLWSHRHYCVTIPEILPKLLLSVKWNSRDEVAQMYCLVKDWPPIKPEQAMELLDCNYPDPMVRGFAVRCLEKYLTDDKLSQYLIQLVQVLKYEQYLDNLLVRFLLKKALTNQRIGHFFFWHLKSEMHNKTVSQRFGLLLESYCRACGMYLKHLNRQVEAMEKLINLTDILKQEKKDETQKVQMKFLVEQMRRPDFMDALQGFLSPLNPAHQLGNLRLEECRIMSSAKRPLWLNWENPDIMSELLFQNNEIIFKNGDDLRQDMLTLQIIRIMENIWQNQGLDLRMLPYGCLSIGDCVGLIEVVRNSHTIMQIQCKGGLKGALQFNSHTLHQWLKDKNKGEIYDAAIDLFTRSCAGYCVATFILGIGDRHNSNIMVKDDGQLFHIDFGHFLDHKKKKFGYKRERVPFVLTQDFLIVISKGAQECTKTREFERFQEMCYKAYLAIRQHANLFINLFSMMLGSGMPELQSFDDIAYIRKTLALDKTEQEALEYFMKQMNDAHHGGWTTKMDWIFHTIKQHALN", "UniProt P54764, sequence (whole entry, looked up)": "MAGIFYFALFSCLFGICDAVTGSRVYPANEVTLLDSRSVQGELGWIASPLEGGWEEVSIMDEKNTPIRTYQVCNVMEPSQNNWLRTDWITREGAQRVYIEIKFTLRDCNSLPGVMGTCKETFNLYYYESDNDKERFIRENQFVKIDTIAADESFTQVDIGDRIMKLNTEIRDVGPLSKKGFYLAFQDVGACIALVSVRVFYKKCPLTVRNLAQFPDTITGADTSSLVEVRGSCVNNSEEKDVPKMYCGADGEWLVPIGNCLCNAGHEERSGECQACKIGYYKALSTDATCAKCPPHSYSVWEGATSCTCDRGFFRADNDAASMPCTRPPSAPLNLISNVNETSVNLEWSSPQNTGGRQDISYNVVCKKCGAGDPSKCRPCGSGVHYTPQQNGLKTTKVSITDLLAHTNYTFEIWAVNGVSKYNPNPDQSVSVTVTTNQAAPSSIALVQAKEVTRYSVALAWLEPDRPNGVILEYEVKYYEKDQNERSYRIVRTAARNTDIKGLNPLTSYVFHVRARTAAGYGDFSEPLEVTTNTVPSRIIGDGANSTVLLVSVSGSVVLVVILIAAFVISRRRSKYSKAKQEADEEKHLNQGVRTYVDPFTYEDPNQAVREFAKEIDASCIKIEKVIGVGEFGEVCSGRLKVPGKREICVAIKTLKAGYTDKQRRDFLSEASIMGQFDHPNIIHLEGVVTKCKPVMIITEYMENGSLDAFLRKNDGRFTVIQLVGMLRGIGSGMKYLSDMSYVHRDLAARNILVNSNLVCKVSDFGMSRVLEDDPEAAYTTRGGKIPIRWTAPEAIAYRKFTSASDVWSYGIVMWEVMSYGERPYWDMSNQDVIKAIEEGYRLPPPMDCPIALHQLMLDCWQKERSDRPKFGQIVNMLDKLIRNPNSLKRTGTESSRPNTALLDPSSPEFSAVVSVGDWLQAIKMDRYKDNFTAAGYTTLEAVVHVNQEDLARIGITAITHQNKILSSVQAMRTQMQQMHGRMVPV", "UniProt O00444, sequence (whole entry, looked up)": "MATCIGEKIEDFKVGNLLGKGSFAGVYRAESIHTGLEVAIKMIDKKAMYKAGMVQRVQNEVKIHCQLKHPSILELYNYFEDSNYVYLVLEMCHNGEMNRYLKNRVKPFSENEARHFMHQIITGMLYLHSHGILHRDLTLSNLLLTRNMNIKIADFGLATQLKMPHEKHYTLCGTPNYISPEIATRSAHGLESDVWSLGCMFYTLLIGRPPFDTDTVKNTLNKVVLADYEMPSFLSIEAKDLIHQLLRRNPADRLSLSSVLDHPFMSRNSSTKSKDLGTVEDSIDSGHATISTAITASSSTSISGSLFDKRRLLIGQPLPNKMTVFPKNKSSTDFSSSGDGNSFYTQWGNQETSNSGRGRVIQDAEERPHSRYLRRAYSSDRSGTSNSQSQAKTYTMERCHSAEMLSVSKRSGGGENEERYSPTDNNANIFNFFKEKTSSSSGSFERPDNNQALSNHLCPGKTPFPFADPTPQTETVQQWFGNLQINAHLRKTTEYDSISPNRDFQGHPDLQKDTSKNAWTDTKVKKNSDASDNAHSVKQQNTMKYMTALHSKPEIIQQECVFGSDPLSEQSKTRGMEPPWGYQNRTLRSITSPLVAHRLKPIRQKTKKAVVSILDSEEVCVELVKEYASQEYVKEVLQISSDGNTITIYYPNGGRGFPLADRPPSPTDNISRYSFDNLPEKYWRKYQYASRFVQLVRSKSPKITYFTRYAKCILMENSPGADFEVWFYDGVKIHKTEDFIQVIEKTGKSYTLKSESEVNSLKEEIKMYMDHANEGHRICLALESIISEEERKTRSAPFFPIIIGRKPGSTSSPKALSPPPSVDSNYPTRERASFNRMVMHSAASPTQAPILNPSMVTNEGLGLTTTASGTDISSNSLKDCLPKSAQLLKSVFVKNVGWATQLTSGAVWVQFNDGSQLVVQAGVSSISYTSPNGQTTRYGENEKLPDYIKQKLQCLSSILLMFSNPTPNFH", "UniProt Q9UEE5, sequence (whole entry, looked up)": "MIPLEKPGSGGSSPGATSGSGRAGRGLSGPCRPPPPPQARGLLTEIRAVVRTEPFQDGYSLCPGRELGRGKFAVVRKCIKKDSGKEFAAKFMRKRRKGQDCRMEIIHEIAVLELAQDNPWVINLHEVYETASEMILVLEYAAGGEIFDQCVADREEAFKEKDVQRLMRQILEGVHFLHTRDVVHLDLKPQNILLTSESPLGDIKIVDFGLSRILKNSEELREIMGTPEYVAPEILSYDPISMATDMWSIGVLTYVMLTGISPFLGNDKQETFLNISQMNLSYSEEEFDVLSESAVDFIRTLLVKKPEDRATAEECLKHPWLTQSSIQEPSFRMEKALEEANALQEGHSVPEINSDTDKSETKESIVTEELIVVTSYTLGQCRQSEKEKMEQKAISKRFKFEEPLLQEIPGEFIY", "UniProt Q13554, sequence (whole entry, looked up)": "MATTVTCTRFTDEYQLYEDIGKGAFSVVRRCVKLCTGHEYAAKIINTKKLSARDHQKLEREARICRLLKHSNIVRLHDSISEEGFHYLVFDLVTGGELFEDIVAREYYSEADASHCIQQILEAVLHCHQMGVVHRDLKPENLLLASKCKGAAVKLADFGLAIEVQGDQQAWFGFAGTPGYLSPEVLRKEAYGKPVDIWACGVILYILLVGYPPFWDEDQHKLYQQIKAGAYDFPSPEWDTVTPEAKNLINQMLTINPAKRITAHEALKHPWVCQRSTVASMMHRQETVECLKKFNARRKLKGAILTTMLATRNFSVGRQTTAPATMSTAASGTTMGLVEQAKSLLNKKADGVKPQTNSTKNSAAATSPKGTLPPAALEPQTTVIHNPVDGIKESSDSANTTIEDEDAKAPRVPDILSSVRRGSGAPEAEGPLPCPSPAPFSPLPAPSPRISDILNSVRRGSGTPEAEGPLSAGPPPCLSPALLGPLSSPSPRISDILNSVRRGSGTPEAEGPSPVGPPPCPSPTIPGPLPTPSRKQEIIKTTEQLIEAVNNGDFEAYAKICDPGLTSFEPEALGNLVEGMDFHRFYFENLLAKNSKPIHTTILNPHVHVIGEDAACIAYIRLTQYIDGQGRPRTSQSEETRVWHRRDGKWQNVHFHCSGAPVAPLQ", "UniProt Q00534, sequence (whole entry, looked up)": "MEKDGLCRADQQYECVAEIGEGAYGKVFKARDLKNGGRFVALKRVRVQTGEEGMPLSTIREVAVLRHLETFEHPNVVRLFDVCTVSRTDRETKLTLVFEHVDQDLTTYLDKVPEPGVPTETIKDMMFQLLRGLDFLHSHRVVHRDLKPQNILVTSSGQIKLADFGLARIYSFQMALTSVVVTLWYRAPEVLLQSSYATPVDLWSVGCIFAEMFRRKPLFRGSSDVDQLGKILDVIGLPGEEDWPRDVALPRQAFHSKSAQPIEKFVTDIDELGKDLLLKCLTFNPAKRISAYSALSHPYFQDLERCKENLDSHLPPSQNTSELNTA"}
{"data": "Block 1", "Compound": "CNc1cc2c(Nc3cccc(Br)c3)ncnc2cn1", "read-out": "enzyme activity", "action": "inhibitor", "concentration": "0.5 µM", "baseline": "control"}
{"target": "HIPK4 (Homo sapiens, UniProt Q8NE63)", "remaining activity": "82.8%"}
{"target": "TSSK2 (Homo sapiens, UniProt Q96PF2)", "remaining activity": "87.2%"}
{"target": "AXL (Homo sapiens, UniProt P30530)", "remaining activity": "98.6%"}
{"target": "CAMK2B (Homo sapiens, UniProt Q13554)", "remaining activity": "95.8%"}
{"target": "Cyclin-dependent kinase 1, with cyclin B (CDK1, Homo sapiens, UniProt P06493)", "remaining activity": "104%"}
{"target": "STK16 (Homo sapiens, UniProt O75716)", "remaining activity": "98.6%"}
{"target": "HIPK2 (Homo sapiens, UniProt Q9H2X6)", "remaining activity": "98.4%"}
{"target": "PDPK1 (Homo sapiens, UniProt O15530)", "remaining activity": "97.7%"}
{"target": "EPHB4 (Homo sapiens, UniProt P54760)", "remaining activity": "99.6%"}
{"target": "MAP4K4 (Homo sapiens, UniProt O95819)", "remaining activity": "86.9%"}
{"target": "SRMS (Homo sapiens, UniProt Q9H3Y6)", "remaining activity": "100%"}
{"target": "BLK (Homo sapiens, UniProt P51451)", "remaining activity": "103%"}
{"target": "WNK3 (Homo sapiens, UniProt Q9BYP7)", "remaining activity": "97.4%"}
{"target": "ABL1 (Homo sapiens, UniProt P00519)", "remaining activity": "89.8%"}
{"target": "DYRK3 (Homo sapiens, UniProt O43781)", "remaining activity": "84.4%"}
{"target": "RPS6KA5 (Homo sapiens, UniProt O75582)", "remaining activity": "92.3%"}
{"target": "PRKACG (Homo sapiens, UniProt P22612)", "remaining activity": "115%"}
{"target": "STK17A (Homo sapiens, UniProt Q9UEE5)", "remaining activity": "98.4%"}
{"target": "MAPKAPK3 (Homo sapiens, UniProt Q16644)", "remaining activity": "99.2%"}
{"target": "Cyclin-dependent kinase 6, with cyclin D3 (CDK6, Homo sapiens, UniProt Q00534)", "remaining activity": "90.8%"}
{"target": "RPS6KA6 (Homo sapiens, UniProt Q9UK32)", "remaining activity": "81.8%"}
{"target": "EPHA4 (Homo sapiens, UniProt P54764)", "remaining activity": "94.2%"}
{"target": "PHKG1 (Homo sapiens, UniProt Q16816)", "remaining activity": "91.4%"}
{"target": "EPHB1 (Homo sapiens, UniProt P54762)", "remaining activity": "90.2%"}
{"target": "Cyclin-dependent kinase 4, with cyclin D3 (CDK4, Homo sapiens, UniProt P11802)", "remaining activity": "120%"}
{"data": "Block 2", "Compound": "CC(C)S(=O)(=O)c1ccc2nccc(Nc3ccc4sc(C5CCCC5)nc4c3)c2c1.Cl", "read-out": "kinase activity", "action": "inhibitor", "concentration": "1 µM"}
{"target": "NEK7 (Homo sapiens, UniProt Q8TDX7)", "remaining activity [%]": 82}
{"target": "PLK3 (Homo sapiens, UniProt Q9H4B4)", "remaining activity [%]": 96}
{"target": "MARK4 (Homo sapiens, UniProt Q96L34)", "remaining activity [%]": 94}
{"target": "TLK2 (Homo sapiens, UniProt Q86UE8)", "remaining activity [%]": 87}
{"target": "PDGFRB (Homo sapiens, UniProt P09619)", "remaining activity [%]": 89}
{"target": "SNRK (Homo sapiens, UniProt Q9NRH2)", "remaining activity [%]": 95}
{"target": "STK26 (Homo sapiens, UniProt Q9P289)", "remaining activity [%]": 83}
{"target": "LTK (Homo sapiens, UniProt P29376)", "remaining activity [%]": 103}
{"target": "STK3 (Homo sapiens, UniProt Q13188)", "remaining activity [%]": 100}
{"target": "CAMK2B (Homo sapiens, UniProt Q13554)", "remaining activity [%]": 94}
{"target": "CAMK1 (Homo sapiens, UniProt Q14012)", "remaining activity [%]": 94}
{"target": "PRKCB (Homo sapiens, UniProt P05771)", "remaining activity [%]": 101}
{"target": "PLK4 (Homo sapiens, UniProt O00444)", "remaining activity [%]": 96}
{"target": "MAP2K1 (Homo sapiens, UniProt Q02750)", "remaining activity [%]": 105}
{"target": "WNK2 (Homo sapiens, UniProt Q9Y3S1)", "remaining activity [%]": 85}
{"target": "RET (Homo sapiens, UniProt P07949)", "remaining activity [%]": 101}
{"target": "PRKCD (Homo sapiens, UniProt Q05655)", "remaining activity [%]": 91}
{"target": "NEK6 (Homo sapiens, UniProt Q9HC98)", "remaining activity [%]": 93}
{"target": "AKT3 (Homo sapiens, UniProt Q9Y243)", "remaining activity [%]": 100}
{"data": "Block 3", "SMILES": "CCOCCn1cc(C(=O)Nc2ccc(-n3nc(-c4cccnc4)cc3C(F)(F)F)cn2)ccc1=O", "concentration": "1 µM"}
{"target": "DYRK2 (Homo sapiens, UniProt Q92630)", "read-out": "cell-free assay", "method": "competition with immobilised ligand", "remaining binding [%]": 100}
{"target": "PRKAA1 (Homo sapiens, UniProt Q13131)", "read-out": "cell-free assay", "method": "competition with immobilised ligand", "remaining binding [%]": 100}
{"target": "PIK3CA (Homo sapiens, UniProt P42336, I800L)", "read-out": "cell-free assay", "method": "competition with immobilised ligand", "remaining binding [%]": 71}
{"target": "LRRK2 (Homo sapiens, UniProt Q5S007)", "read-out": "cell-free assay", "method": "competition with immobilised ligand", "remaining binding [%]": 100}
{"target": "PRKCE (Homo sapiens, UniProt Q02156)", "read-out": "cell-free assay", "method": "competition with immobilised ligand", "remaining binding [%]": 100}
{"target": "Insulin receptor (INSR, Homo sapiens, UniProt P06213)", "read-out": "cell-free assay", "method": "competition with immobilised ligand", "remaining binding [%]": 98}
{"target": "FGR (Homo sapiens, UniProt P09769)", "read-out": "cell-free assay", "method": "competition with immobilised ligand", "remaining binding [%]": 100}
{"target": "CDK18 (Homo sapiens, UniProt Q07002)", "read-out": "cell-free assay", "method": "competition with immobilised ligand", "remaining binding [%]": 98}
{"target": "STK32B (Homo sapiens, UniProt Q9NY57)", "read-out": "cell-free assay", "method": "competition with immobilised ligand", "remaining binding [%]": 100}
{"target": "MYLK3 (Homo sapiens, UniProt Q32MK0)", "read-out": "cell-free assay", "method": "competition with immobilised ligand", "remaining binding [%]": 97}
{"target": "CDKL3 (Homo sapiens, UniProt Q8IVW4)", "read-out": "cell-free assay", "method": "competition with immobilised ligand", "remaining binding [%]": 84}
{"target": "GRK1 (Homo sapiens, UniProt Q15835)", "read-out": "cell-free assay", "method": "competition with immobilised ligand", "remaining binding [%]": 74}
{"target": "PIK3C2G (Homo sapiens, UniProt O75747)", "read-out": "cell-free assay", "method": "competition with immobilised ligand", "remaining binding [%]": 85}
{"target": "STK17A (Homo sapiens, UniProt Q9UEE5)", "read-out": "cell-free assay", "method": "competition with immobilised ligand", "remaining binding [%]": 100}
{"target": "MARK1 (Homo sapiens, UniProt Q9P0L2)", "read-out": "cell-free assay", "method": "competition with immobilised ligand", "remaining binding [%]": 100}
{"target": "TRPM6 (Homo sapiens, UniProt Q9BX84)", "read-out": "cell-free assay", "method": "competition with immobilised ligand", "remaining binding [%]": 73}
{"target": "DCLK1 (Homo sapiens, UniProt O15075)", "read-out": "cell-free assay", "method": "competition with immobilised ligand", "remaining binding [%]": 83}
{"target": "PLK4 (Homo sapiens, UniProt O00444)", "read-out": "cell-free assay", "method": "competition with immobilised ligand", "remaining binding [%]": 100}
{"target": "EPHA4 (Homo sapiens, UniProt P54764)", "read-out": "cell-free assay", "method": "competition with immobilised ligand", "remaining binding [%]": 91}
{"target": "PRKCI (Homo sapiens, UniProt P41743)", "read-out": "cell-free assay", "method": "competition with immobilised ligand", "remaining binding [%]": 73}
{"target": "TESK1 (Homo sapiens, UniProt Q15569)", "read-out": "cell-free assay", "method": "competition with immobilised ligand", "remaining binding [%]": 85}
{"target": "CDKL2 (Homo sapiens, UniProt Q92772)", "read-out": "cell-free assay", "method": "competition with immobilised ligand", "remaining binding [%]": 100}
{"target": "CDC42BPG (Homo sapiens, UniProt Q6DT37)", "method": "competition binding", "remaining binding [%]": 91}
{"target": "PIK3CA (Homo sapiens, UniProt P42336, M1043I)", "read-out": "cell-free assay", "method": "competition with immobilised ligand", "remaining binding [%]": 100}
{"target": "MAP3K12 (Homo sapiens, UniProt Q12852)", "read-out": "cell-free assay", "method": "competition with immobilised ligand", "remaining binding [%]": 100}
{"data": "Block 4", "target": "Calcium/calmodulin-dependent protein kinase type II subunit alpha (CAMK2A, Homo sapiens, UniProt Q9UQM7)", "read-out": "enzyme activity", "action": "inhibitor", "concentration": "10 µM", "UniProt Q9UQM7, sequence (whole entry, looked up)": "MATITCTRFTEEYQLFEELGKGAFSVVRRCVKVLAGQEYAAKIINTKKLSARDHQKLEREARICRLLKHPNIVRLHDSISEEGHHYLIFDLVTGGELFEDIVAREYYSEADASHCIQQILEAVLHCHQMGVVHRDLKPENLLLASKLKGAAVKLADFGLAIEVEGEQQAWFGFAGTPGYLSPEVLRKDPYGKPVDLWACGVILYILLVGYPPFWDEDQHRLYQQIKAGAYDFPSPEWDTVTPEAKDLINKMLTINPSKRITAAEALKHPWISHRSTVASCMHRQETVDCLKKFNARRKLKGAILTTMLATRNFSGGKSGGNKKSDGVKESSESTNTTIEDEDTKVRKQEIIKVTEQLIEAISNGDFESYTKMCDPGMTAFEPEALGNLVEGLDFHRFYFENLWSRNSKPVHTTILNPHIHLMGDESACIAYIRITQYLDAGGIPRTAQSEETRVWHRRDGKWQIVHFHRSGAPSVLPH"}
{"Structure (SMILES)": "COc1cc2cc(Oc3ccc4ccc(=O)oc4c3)c(=O)oc2cc1O", "inhibition [%]": -35}
{"Structure (SMILES)": "COc1cc(/C=C/C(=O)OC[C@H]2O[C@H](O[C@]3(CO)O[C@H](CO)[C@@H](O)[C@@H]3OC(=O)/C=C/c3cc(OC)c(O)c(OC)c3)[C@H](O)[C@@H](O)[C@@H]2O)cc(OC)c1O", "inhibition [%]": -2}
{"Structure (SMILES)": "CCN(CC)CCNC(=O)c1cc(S(C)(=O)=O)ccc1OC", "inhibition [%]": 3}
{"Structure (SMILES)": "COc1cc(-c2coc3cc(O[C@@H]4O[C@H](CO)[C@@H](O)[C@H](O)[C@H]4O)c(OC)c(O)c3c2=O)ccc1O", "inhibition [%]": 2}
{"Structure (SMILES)": "CCCCCCCCCCCCCCCCO", "inhibition [%]": 17}
{"Structure (SMILES)": "COc1cc2oc(=O)cc(-c3ccccc3)c2cc1O", "inhibition [%]": -49}
{"Structure (SMILES)": "COc1c2ccoc2c(OC)c2oc(=O)ccc12", "inhibition [%]": -3}
{"Structure (SMILES)": "CC1(C)CC[C@]2(C(=O)O)CC[C@]3(C)C(=CC[C@@H]4[C@@]5(C)C[C@@H](O)[C@H](O)[C@@](C)(CO)[C@@H]5[C@H](O)C[C@]43C)[C@@H]2C1", "inhibition [%]": -23}
{"Structure (SMILES)": "Cc1cccs1", "inhibition [%]": 8}
{"Structure (SMILES)": "COc1cc(/C=C/c2ccc(OC)c(OC)c2)oc(=O)c1", "inhibition [%]": -34}
{"Structure (SMILES)": "COc1cc(O)c2c(=O)c3c(O[C@@H]4O[C@H](CO)[C@@H](O)[C@H](O)[C@H]4O)ccc(O)c3oc2c1", "inhibition [%]": -6}
{"Structure (SMILES)": "COc1cc(-c2[o+]c3cc(O)cc(O)c3cc2O)cc(O)c1O", "inhibition [%]": -7}
{"Structure (SMILES)": "O=C(C[S+]([O-])Cc1ccco1)NC/C=C\\COc1cc(CN2CCCCC2)ccn1 (stereo not drawn)", "inhibition [%]": -4}
{"Structure (SMILES)": "N[C@H]1CONC1=O", "inhibition [%]": -11}
{"Structure (SMILES)": "CC(C)OC(=O)CCC/C=C\\C[C@@H]1[C@@H](/C=C/[C@@H](O)COc2cccc(C(F)(F)F)c2)[C@H](O)C[C@@H]1O", "inhibition [%]": 0}
{"Structure (SMILES)": "NC1CCN(c2nc3c(cc2F)c(=O)c(C(=O)O)cn3-c2ccc(F)cc2F)C1 (stereo not drawn)", "inhibition [%]": -11}
{"Structure (SMILES)": "C=CC(=O)N1CCC[C@@H](n2nc(-c3ccc(Oc4ccccc4)cc3)c3c(N)ncnc32)C1", "inhibition [%]": -0.15}
{"Structure (SMILES)": "CCCCCCCCCCCCN1CCCCCC1=O", "inhibition [%]": -1}
{"note": "Repeated from above (block 4):"}
{"Structure (SMILES)": "CCCCCCCCCCCCCCCCO", "inhibition [%]": 17}
{"Structure (SMILES)": "COc1cc2oc(=O)cc(-c3ccccc3)c2cc1O", "inhibition [%]": -49}
{"Structure (SMILES)": "COc1c2ccoc2c(OC)c2oc(=O)ccc12", "inhibition [%]": -3}
{"Structure (SMILES)": "CC1(C)CC[C@]2(C(=O)O)CC[C@]3(C)C(=CC[C@@H]4[C@@]5(C)C[C@@H](O)[C@H](O)[C@@](C)(CO)[C@@H]5[C@H](O)C[C@]43C)[C@@H]2C1", "inhibition [%]": -23}
{"Structure (SMILES)": "Cc1cccs1", "inhibition [%]": 8}
{"Structure (SMILES)": "COc1cc(/C=C/c2ccc(OC)c(OC)c2)oc(=O)c1", "inhibition [%]": -34}
{"Structure (SMILES)": "COc1cc(O)c2c(=O)c3c(O[C@@H]4O[C@H](CO)[C@@H](O)[C@H](O)[C@H]4O)ccc(O)c3oc2c1", "inhibition [%]": -6}
{"Structure (SMILES)": "COc1cc(-c2[o+]c3cc(O)cc(O)c3cc2O)cc(O)c1O", "inhibition [%]": -7}
{"Structure (SMILES)": "O=C(C[S+]([O-])Cc1ccco1)NC/C=C\\COc1cc(CN2CCCCC2)ccn1 (stereo not drawn)", "inhibition [%]": -4}
{"Structure (SMILES)": "N[C@H]1CONC1=O", "inhibition [%]": -11}
{"Structure (SMILES)": "CC(C)OC(=O)CCC/C=C\\C[C@@H]1[C@@H](/C=C/[C@@H](O)COc2cccc(C(F)(F)F)c2)[C@H](O)C[C@@H]1O", "inhibition [%]": 0}
